Published values pooled from the literature.
Numbered parts are unrelated; each lists some results of a single study. Changes are numbered by the printed parent chain.

Set 1
Target: CCNB1, cyclin fold, Cln2 fusion (human)
Technique: yeast growth competition, sequencing
Medium: yeast
Setting: strong parent motif
Reference: not given
Reading: higher = stronger binding
Starting sequence: PKN2 docking peptide (human); VSAVRKLDFSDTM
For `VYAVRKLDFSDTM [S2Y]`, “normalised enrichment score” read 3.49.
For `VSAVRKLDFTDTM [S10T]`, “normalised enrichment score” read 3.97.
Under “normalised enrichment score”, `VSAFRKLDFSDTM [V4F]` is recorded as 1.09.
Under “normalised enrichment score”, `VSAWRKLDFSDTM [V4W]` is recorded as 0.535.
For `VSAVRKLDFHDTM [S10H]`, “normalised enrichment score” read 3.29.
`VSAVLKLDFSDTM [R5L]` — result for “normalised enrichment score”: 1.86.
`VSAVRMLDFSDTM [K6M]`: “normalised enrichment score” 3.1.
`VSAVRKLDASDTM [F9A]`: “normalised enrichment score” -0.205.
`VSAVRYLDFSDTM [K6Y]` — result for “normalised enrichment score”: 2.04.
For `VSAVRKLDHSDTM [F9H]`, “normalised enrichment score” read 0.277.
`VSAVRKLDFSDLM [T12L]` — result for “normalised enrichment score”: 3.22.
Under “normalised enrichment score”, `VSAVRKLDFSDDM [T12D]` is recorded as 4.45.

Set 2
Target: RNA binding protein fox-1 homolog 2, RRM domain, GST-SBP tag (RBFOX2, Homo sapiens, UniProt O43251-10, residues 100-194)
Technique: RNA Bind-n-Seq
Molecule type: RNA
Medium: in vitro
Tested at: 365 nM
Setting: natural RNA segment, single round, ends assumed
Reference: no-protein control
Reading: higher = stronger binding
Target sequence (chain): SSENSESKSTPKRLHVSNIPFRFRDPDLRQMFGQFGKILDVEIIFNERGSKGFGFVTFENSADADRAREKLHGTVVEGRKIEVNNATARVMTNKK
`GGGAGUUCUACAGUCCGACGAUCGAAUGGGACCUCCUGCCAUUCAGUGAGCACUAGGACAGCUGGGACCUCCUGCCAUUCAGUGAGCACUAGGACAGCUGGGACCUCCUGCCAUUCAGUGAGCACUAGGACAGUGGAAUUCUCGGGUGCCAA`: “RBNS enrichment (R)” 0.354.
`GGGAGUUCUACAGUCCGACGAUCGGGAAGUGUGCAGUGUGAGCUCUGCCCUCCUGUUAAGUUCUCCAGCUCUAGACAUGUCUCUUGGUGUGUGUUUUAUCUACUGGUGUUAUUCUAUAUGGUAGAAUUACCAAUGGAAUUCUCGGGUGCCAA` — result for “RBNS enrichment (R)”: 0.381.
For `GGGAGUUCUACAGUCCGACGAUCGGAGCUCACUGUGGGAUGGGGUUGACCUCUGCCGCCUGCCUGGGUAUCUGGGCCUGGCCAUGGCUGUGUUCUUCAUGUGUUGAUUUUAUUUGACCCCUGGAGUGGUGGGUUGGAAUUCUCGGGUGCCAA`, “RBNS enrichment (R)” read 0.658.
`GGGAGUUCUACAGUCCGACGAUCAAAGAAUGGGUAUACGCAGUGACUUCCGAUGGAAAUCUCCAAAACAAUAUUCCUAAGUAGCAAUGGGGUUGGCUCAAGUCUUUAUUAACAAAGAACAUUCUCUUUCAUCUUGGAAUUCUCGGGUGCCAA`: “RBNS enrichment (R)” 0.635.
`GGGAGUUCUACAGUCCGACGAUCCCCGCAGGCAAAUUGGAUGGGCGUCUGGCCGCCGUGGAGUUCCGGUGACCCAUUUCCCCAGCCGUGUCGUCUCCAGGACCACCCGAUGGAAAUAACAGGCGGGCUUCACGUGGAAUUCUCGGGUGCCAA` — result for “RBNS enrichment (R)”: 0.586.
`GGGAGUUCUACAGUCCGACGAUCGUGACUGAGGCUUCCACCAGAGUGCCAGGGCUCUGUGCAGACUCAGAAUCCCUGUUCCCUAUGUCACGUUCCAGCAUUGUAUAGCACAGUUCCAUGUCACAAACAGGAAGUGGAAUUCUCGGGUGCCAA` — result for “RBNS enrichment (R)”: 0.765.
For `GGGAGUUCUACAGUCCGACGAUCUAUCUCAGUUCAUCAGAGGGCCUGAGAAGCUGCGGGGCAGUGUAAAGUAAAGUAUGCUGGGCUGGUGGUGGUCAGCCUUCCCCUUGCCAAGAAGAGAGCAAUUGAAUCCUUGGAAUUCUCGGGUGCCAA`, “RBNS enrichment (R)” read 0.56.
For `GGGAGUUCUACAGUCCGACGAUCGUGCUUGGAUCAGGAGAGGAUACCUCAGUGGUUAAGGUUCUGAUGGACGCACAUAUACAUAGAUGUACUCACUUAUCUAUGGUACAGAUGGGUGGGGAAGAGGUUGCUCUUGGAAUUCUCGGGUGCCAA`, “RBNS enrichment (R)” read 0.434.

Set 3
Target: ABI1, truncated, D143A, DHFR fusion (Arabidopsis thaliana)
Technique: DHFR PCA, deep sequencing
Medium: yeast
Setting: methotrexate growth selection, single substitutions
Together with: (+)-ABA 4.8 µM
Reference: wild-type fitted maximum
Reading: higher = stronger binding
Starting sequence: PYL1, truncated, DHFR fusion (Arabidopsis thaliana); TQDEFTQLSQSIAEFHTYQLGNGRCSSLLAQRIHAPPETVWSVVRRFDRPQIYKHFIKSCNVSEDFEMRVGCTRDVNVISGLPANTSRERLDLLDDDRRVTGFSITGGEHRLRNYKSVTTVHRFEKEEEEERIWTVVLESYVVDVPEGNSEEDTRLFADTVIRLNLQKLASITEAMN; partner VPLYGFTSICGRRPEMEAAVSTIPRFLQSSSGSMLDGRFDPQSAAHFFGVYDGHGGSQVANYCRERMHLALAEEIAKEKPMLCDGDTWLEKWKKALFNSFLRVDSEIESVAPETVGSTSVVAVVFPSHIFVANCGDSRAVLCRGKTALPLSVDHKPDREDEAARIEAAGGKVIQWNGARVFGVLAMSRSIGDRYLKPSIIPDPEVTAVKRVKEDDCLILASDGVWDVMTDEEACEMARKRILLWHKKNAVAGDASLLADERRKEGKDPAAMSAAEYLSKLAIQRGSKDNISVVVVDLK
`D153S`: “relative binding score” 1.76%.
`E151L`: “relative binding score” 61.2%.
For `L156I`, “relative binding score” read 85.1%.
Under “relative binding score”, `F15N` is recorded as 19.7%.
`E64L` — result for “relative binding score”: 50.5%.
Under “relative binding score”, `I105H` is recorded as -14.5%.
`T135E` — result for “relative binding score”: -13.7%.
For `D144C`, “relative binding score” read 5.57%.
`I105A` — result for “relative binding score”: -4.46%.
`T160F` — result for “relative binding score”: 92.1%.
`K58T` — result for “relative binding score”: 35.4%.
For `T119W`, “relative binding score” read -8.28%.

Set 4
Target: Ras GTPase-activating protein-binding protein 1, full length (G3BP1, Homo sapiens, UniProt Q13283)
Chain of UniProt Q13283 (whole entry, looked up): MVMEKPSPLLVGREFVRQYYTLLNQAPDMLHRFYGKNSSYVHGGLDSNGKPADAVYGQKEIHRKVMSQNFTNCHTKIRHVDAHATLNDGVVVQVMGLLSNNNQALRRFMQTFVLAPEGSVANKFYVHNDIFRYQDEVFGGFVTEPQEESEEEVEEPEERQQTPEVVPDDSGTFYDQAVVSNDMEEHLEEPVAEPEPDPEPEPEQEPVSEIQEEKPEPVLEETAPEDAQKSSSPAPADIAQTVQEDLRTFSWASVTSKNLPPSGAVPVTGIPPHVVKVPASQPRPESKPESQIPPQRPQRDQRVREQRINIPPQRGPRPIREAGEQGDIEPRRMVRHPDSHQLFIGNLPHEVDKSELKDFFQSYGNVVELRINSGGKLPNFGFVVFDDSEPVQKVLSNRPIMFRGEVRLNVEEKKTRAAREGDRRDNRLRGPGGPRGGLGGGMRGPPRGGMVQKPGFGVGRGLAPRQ
Technique: RNA Bind-n-Seq
Molecule type: RNA
Medium: in vitro
Tested at: 200 nM
Setting: whole 134-nt RNA, ends assumed
Together with: 150 mM KCl
Reference: input library
Reading: higher = stronger binding
`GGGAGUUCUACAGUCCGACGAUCCACAGACAACACGCACCCACACAGACACAGAGGGAAGGGGUUGGGAUGGGGAGAGGGUGCACAGCAGGGCGGGGUAGGACCCCAGCCCCUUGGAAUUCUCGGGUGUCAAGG` has a log2 enrichment of 1.84.
`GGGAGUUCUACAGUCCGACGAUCUGGCCCUGGUGGCAUGCGGGGAGGAAGAGGUGGCCUCAUGGAUCGUGGCGGUCCCGGUGGAAUGUUCAGAGGUGGCCGUGGUGGAGACAGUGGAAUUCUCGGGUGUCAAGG` has a log2 enrichment of 0.0987.
`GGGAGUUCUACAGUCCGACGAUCUCAGGUCCUUAAGUACCUUCGUAUUACUUUUAGCAGGAAAAACGGCAUGUUUUGCAUCUGGUGUGCAAUGUGAAGAGUCCUUCAAAAAUGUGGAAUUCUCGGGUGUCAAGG` has a log2 enrichment of 0.00484.
`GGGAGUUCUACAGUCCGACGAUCCUCAGACAACACGCACCCACACAGACACAGAGGGAAGGGGUUGGGAUGGGGACAGGGUGCACAGCAGGGCGGGGUAGGACCCCAGCCCCUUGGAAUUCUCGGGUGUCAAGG` gave a log2 enrichment of 1.95.
With `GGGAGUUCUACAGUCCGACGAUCUGGCCCUGGUGGCAUGCGGGGAGGAAGAGGUGGCCUCAUGGAUCGUGGUGGUCCCGGUGGAAGGUUCAGAGGUGGCCGUGGUGGAGACAGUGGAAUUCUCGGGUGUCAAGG` the log2 enrichment was 0.348.
For `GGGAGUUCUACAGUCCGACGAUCCUCAAGUCCUGUGCUACACAUCGUAUGUACCGAAUCGGGAGGGGAGGGGAGGGAAAGUAUUAUGUUACGCCGUUCGGAUCUGCACUUCCAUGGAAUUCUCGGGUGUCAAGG`, the log2 enrichment was 1.47.
`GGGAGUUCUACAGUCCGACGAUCGCAGGAAGUAAAAACAAAUGGAAAUGCUUCGGAUAGUGGCAGGGGUGGGGGUUGCUAAGGAAAGGGUGGCAUGGGAGUGGGUAAAGAGUUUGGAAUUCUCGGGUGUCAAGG` gave a log2 enrichment of 0.815.
`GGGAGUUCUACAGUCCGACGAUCCCUCAAGUCCUGUGCUACACAUCGUAUGUACCGAAUCGGGGCGGCGGGGCGGGAAAGUAUUAUGUUACGCCGUUCGGAUCUGCACUUCCAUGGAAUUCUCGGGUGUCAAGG` has a log2 enrichment of 0.821.

For quick reference, copied from above (set 3):
`E151L`: “relative binding score” 61.2%.
For `L156I`, “relative binding score” read 85.1%.
Under “relative binding score”, `F15N` is recorded as 19.7%.
`E64L` — result for “relative binding score”: 50.5%.
Under “relative binding score”, `I105H` is recorded as -14.5%.
`T135E` — result for “relative binding score”: -13.7%.
